Assay results collected from several papers.
Lines come from different studies, so protocols differ.
Target: Serine/threonine-protein kinase 17A (STK17A, Homo sapiens, UniProt Q9UEE5)

Cc1ccc(-c2c(/C=C(\C#N)C(=O)NC(C)C)n(CCCO)c3ncnc(N)c23)cc1 — remaining binding (cell-free assay, competition with immobilised ligand; 1 µM): 92%
CN1CCN(Cc2ccc(-c3ccc(CO[C@H]4CCC[C@@H]4NC(=O)c4cc(-c5cnn(C)c5)cnc4N)cc3)cc2)CC1 — inhibition (enzyme activity, inhibitor; 0.1 µM): 5%
COC(=O)[C@@]1(C)C=C(C(=O)Nc2cccc(C(=O)Nc3ccc(Nc4nccc(-c5cccnc5)n4)c(C)c3)c2)C(=O)CC1 — remaining activity (enzyme activity, inhibitor, radiometric; 1 µM): 74%
Nc1ncc2c(n1)-c1c([nH]c3ccc(C4=CCOCC4)cc13)CCC2 — remaining binding (binding, competition with immobilised ligand; 1 µM): 72%
O=C=[N][Ru-4]123([n]4c5ccc(O)cc5c5c6c(c7cc(F)c[n+]1c7c54)C(=O)NC6=O)[S+]1CC[S+]2CC[S+]3CC1 (stereo not drawn) — remaining activity (enzyme activity; 100 nM, human enzyme, with: 10 µM ATP; baseline: untreated): 94%
C=CC(=O)N1Cc2nc(-c3cc(-c4cc(Cl)cnc4Cl)c(F)cc3F)n(-c3ccncn3)c2C1 — inhibition (cell-free assay; 1 µM): 1.3%
O=C(O)CCC(=O)c1cccc(NS(=O)(=O)c2c[nH]c3ncccc23)c1 — remaining activity (kinase activity, radiometric; 10 µM): 106%
NC(=O)[C@@H](O)C[C@H]1CCc2sc3ncnc(O[C@H]4CC[C@H](N5CCOCC5)CC4)c3c21 — inhibition (enzyme activity, inhibitor; 10 µM): 2%
CNC(=O)C[C@H](Cc1ccc(C#N)cc1)NC(=O)c1cc(-c2ccc(CN[C@H](C)c3ccc(C)cc3)o2)ccc1Cl — activity vs control (enzyme activity, inhibitor; 1 µM): 104%
Fc1cncc(-c2ccc3[nH]c4ncnc(N[C@H]5CC[C@H](N6CCOCC6)CC5)c4c3c2)c1 — inhibition (enzyme activity, inhibitor, radiometric; 1 µM): 86%
C=CC(=O)N1CCCC(n2c(=O)c3ncccc3n(Cc3ccc(Oc4ccccc4)cc3)c2=O)C1 (stereo not drawn) — remaining binding (cell-free assay, competition with immobilised ligand; 1 µM): 96%
COc1cc(Nc2nc(C)cc(-c3cnn4nc(OC)ccc34)n2)cc(C(F)(F)F)c1 — remaining activity (inhibitor; 1 µM, DRAK1; baseline: control): 66%
Nc1ncc(-c2cc(-c3cnn(CC(F)(F)F)c3)ncc2F)nc1C(=O)NC1CNCC(F)C1 (stereo not drawn) — remaining activity (enzyme activity; 1 µM; baseline: DMSO control): 52%
COc1ccc(NC(=O)Nc2ccc3c(c2)C(=O)N(C(C)CO)CC(C)C(CN(C)Cc2ccc4c(c2)OCO4)O3)cc1 (stereo not drawn) — remaining activity (kinase activity, KinaseProfiler; 0.03 µM, species human; baseline: control): 102%
Cc1ccc(C(=O)Nc2ccc(CN3CCN(C)CC3)c(C(F)(F)F)c2)cc1C#Cc1cnc2cccnn12 — upper asymptote (target engagement, NanoBRET; human cells): 6270

Some of these lines once more:
CNC(=O)C[C@H](Cc1ccc(C#N)cc1)NC(=O)c1cc(-c2ccc(CN[C@H](C)c3ccc(C)cc3)o2)ccc1Cl — activity vs control (enzyme activity, inhibitor; 1 µM): 104%
C=CC(=O)N1Cc2nc(-c3cc(-c4cc(Cl)cnc4Cl)c(F)cc3F)n(-c3ccncn3)c2C1 — inhibition (cell-free assay; 1 µM): 1.3%
